Measured values from different studies.
Lines come from different studies, so protocols differ. ± marks the error that the study gave. Square brackets hold non-standard residues; d marks the D form. Where no end group is shown, it is not given here. Ends that are not written are not given here. [ ]: non-standard residue; d: D form.
T1: cbrB residues 1-475 (Pseudomonas fluorescens); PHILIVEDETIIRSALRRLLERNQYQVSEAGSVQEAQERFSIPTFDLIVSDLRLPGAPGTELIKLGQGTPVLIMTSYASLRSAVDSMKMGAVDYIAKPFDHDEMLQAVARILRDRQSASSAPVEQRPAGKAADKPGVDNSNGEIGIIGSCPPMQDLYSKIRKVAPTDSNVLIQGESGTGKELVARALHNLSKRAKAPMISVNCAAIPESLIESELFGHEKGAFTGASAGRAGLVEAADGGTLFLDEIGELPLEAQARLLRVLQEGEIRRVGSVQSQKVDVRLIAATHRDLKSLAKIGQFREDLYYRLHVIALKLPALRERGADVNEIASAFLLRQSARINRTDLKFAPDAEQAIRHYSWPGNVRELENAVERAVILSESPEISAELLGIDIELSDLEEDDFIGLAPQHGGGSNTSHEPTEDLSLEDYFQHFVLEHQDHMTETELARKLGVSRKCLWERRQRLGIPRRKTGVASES
UniProt Q5HCX3, sequence (whole entry, looked up): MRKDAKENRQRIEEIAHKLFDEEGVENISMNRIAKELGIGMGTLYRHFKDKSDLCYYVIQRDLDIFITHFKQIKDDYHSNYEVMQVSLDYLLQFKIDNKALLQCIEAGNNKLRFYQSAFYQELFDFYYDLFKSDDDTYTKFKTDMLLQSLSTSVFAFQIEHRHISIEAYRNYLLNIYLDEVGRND
UniProt O15392, sequence (whole entry, unmodified, looked up): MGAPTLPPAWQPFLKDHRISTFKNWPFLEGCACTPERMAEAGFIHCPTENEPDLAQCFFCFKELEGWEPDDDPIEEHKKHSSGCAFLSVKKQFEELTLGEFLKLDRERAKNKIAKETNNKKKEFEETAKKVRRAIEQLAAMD
UniProt P24158, sequence (whole entry, looked up): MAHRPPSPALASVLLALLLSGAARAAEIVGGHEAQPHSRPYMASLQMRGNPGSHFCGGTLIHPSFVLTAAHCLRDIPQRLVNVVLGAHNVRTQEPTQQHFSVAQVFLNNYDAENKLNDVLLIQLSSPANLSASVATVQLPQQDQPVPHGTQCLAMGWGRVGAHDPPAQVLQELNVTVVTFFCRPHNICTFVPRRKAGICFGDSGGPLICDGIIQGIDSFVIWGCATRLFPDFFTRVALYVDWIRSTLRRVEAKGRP

amyloid beta-42 Met35-sulfone  Msr activity decrease (methionine sulfoxide reductase (rat); HPLC, dabsyl-Met(O); rat primary cortical neurons; 10 µM, 24 h; reference: untreated cells): 10 ± 4%
KWWIWAG  recovery yield (adeno-associated virus 9; capsid binding, bind-and-elute chromatography; peptide; peptide ligand resin, MgCl2 elution): 57.2%
NC(Cc1ccccc1)C(=O)NC(CO)C(O)c1ccc([N+](=O)[O-])cc1 (centres unmarked)  Kd (Escherichia coli 70S ribosome; binding, fluorescence polarization; with: BODIPY-erythromycin 4 nM): 19 ± 8 µM
TATCAACACTCTTTTCTTTTATGATATTTAATAGTTATTGCAAATTCATTGCTAACTTTCTTAACACGTTTTATAATAAACGGAGAGTTATCCGTTTGTCAATTTTAGAGAATTTTAAGTAGGTGTAATCATGCGAAAAGATGCAAAAGA (dsDNA)  Kd (gbaA 1-185 (Staphylococcus aureus COL, UniProt Q5HCX3); EMSA; double-stranded DNA, one strand shown): 0.0152 µM
N[C@@H](Cc1c[nH]cn1)C(=O)N[C@H](CO)[C@H](O)c1ccc([N+](=O)[O-])cc1  Kd (Escherichia coli 70S ribosome; binding, fluorescence polarization; with: BODIPY-erythromycin 4 nM): 0.24 ± 0.06 µM
O=[N+]([O-])c1ccc(Cl)c([N+](=O)[O-])c1  EC50 (rhodopsin wild type-Rluc fusion; reporter gene; HEK293; 24 h): 1.52 µM
O=C(N[C@@H](Cn1ccnc1)c1ccc(Cl)cc1Cl)c1ccc(-c2nnc(-c3ccccc3)o2)cc1  remaining activity (Leishmania infantum CYP51; concentration not given): 12 ± 1.1%
CC(=O)N[C@@H](Cc1c[nH]cn1)C(=O)N[C@H](CO)[C@H](O)c1ccc([N+](=O)[O-])cc1  Kd (Escherichia coli 70S ribosome; binding, fluorescence polarization; with: BODIPY-erythromycin 4 nM): 34 ± 5 µM
CCCCC/C=C\C/C=C\C/C=C\C/C=C\CCCC(=O)NCCO  EC50 (rat glycine receptor; glycine-evoked current, potentiator, whole-cell patch clamp; rat spinal neurons): 5.5 ± 2 µM
NSRQTDR  inhibition (peptide, human polyclonal IgM RF WEAK; concentration not given, 5 µg/mL mAb II-481 coated, with: RF at 50% max binding concentration): 0%
O=C/C=C/c1ccccc1  maximal peptide depletion (lysine-containing peptide; mass spectrometry; 24 h, pH 10.2, room temperature): -17%
COCC(C)n1ccn2cc(C(=O)NCc3ccc(F)cc3F)c(=O)c(O)c2c1=O (centres unmarked)  EC50 (HIV-1 integrase wild type; viral replication; HOS, HIV-1; single-round vector): 0.0017 ± 0.0001 µM
Apolipoprotein A-I  apparent oxytocin concentration (anti-oxytocin rabbit polyclonal IgG; cross-reactivity, oxytocin EIA, Enzo; 3 µg/mL): 3.3 ± 2.4 pg/mL
NC(=O)CC(N)C(=O)NC(CO)C(O)c1ccc([N+](=O)[O-])cc1 (centres unmarked)  Kd (Escherichia coli 70S ribosome; binding, fluorescence polarization; with: BODIPY-erythromycin 4 nM): 40 ± 26 µM
RmS-3, glycosylated (Rhipicephalus microplus)  protease inhibition (chymotrypsin (Bos taurus); chromogenic substrate hydrolysis, inhibitor; 1 µM): 96.9%
O=C(O)c1ccc(O)c(O)c1  CD value (NAD(P)H quinone oxidoreductase, mouse; enzyme induction, inducer; Hepa-1c1c7; concentration doubling activity): 4.1 µM
TGTGGCCAGCGAGAGTTGAGGGTGCGCCCCCACAGGTAACACCCACAGATGTGAAAAAACTGTTACCGCGGATATTTCGCGTAACAAAAGCCGGGGCTTACGGTAACGAAGCCCCGGCTTTTTTTGGTCCGTCAAAAACCCGAAACCCCCTCAACCTCCCGGTTTTGCTGG (dsDNA (Pseudomonas fluorescens); blunt)  Kd (T1, cbrB residues 1-475 (Pseudomonas fluorescens); EMSA; double-stranded DNA, one strand shown): 6.67 ± 0.31 µM
FFNFFKG  recovery yield (adeno-associated virus 9; capsid binding, bind-and-elute chromatography; peptide; peptide ligand resin, MgCl2 elution): 72.4%
CC(C)(O)C(O)Cc1cc(/C=C/c2cc(O)cc(O)c2)ccc1O (centres unmarked)  IC50 (Sp1 (human); reporter gene, inhibitor; SW1353; control transcription factor): > 25 µg/mL
AR[pT]KQTARKSTGGKA (histone H3 2-16 (UniProt P68431); pT3; pT = C[C@@H](OP(=O)(O)O)[C@H](N)C(=O)O; sequence looked up)  Kd (BIRC5 D71A (Homo sapiens, UniProt O15392); ITC; peptide; pH 7.5, 25 °C, NaCl 100 mM): 150 ± 13 µM
RmS-17, glycosylated (Rhipicephalus microplus)  protease inhibition (PRTN3 (Homo sapiens, UniProt P24158); chromogenic substrate hydrolysis, inhibitor; 1 µM): < 20%
CC(C)=CCC/C(C)=C/Cc1c(O)cc(/C=C/c2ccc(O)cc2O)cc1O  IC50 (Sp1 (human); reporter gene, inhibitor; SW1353; control transcription factor): > 25 µg/mL
COC[C@H]1OC(=O)c2coc3c2[C@@]1(C)C1=C(C3=O)[C@@H]2CCC(=O)[C@@]2(C)C[C@H]1OC(C)=O  phosphorylated peptide (protein kinase B (human); enzyme activity, single-cell CE-LIF, refers to: peptide VI-B; EpCAM-positive PDX tumour cells; 0.5 µM; reference: total peptide): 1%
melittin  partitioning enthalpy (isothermal titration calorimetry; POPC/POPG LUVs 50:50%; 100 µM, pH 7.0, 40 °C): -10.9 kcal/mol
α1-acid glycoprotein  apparent oxytocin concentration (anti-oxytocin rabbit polyclonal IgG; cross-reactivity, oxytocin EIA, Enzo; 3 µg/mL): 3.9 ± 2.3 pg/mL
CC1(C)C=Cc2c(O)cc(/C=C/c3ccc(O)cc3)cc2O1  IC50 (Sp1 (human); reporter gene, inhibitor; SW1353; control transcription factor): > 25 µg/mL
CC(C)[C@H](NC(=O)CNC(=O)CNC(=O)CNC(=O)[C@H](CCCNC(=N)N)NC(=O)[C@H](CCCNC(=N)N)NC(=O)[C@H](CCCNC(=N)N)NC(=O)[C@H](CCC(N)=O)NC(=O)[C@H](CCCNC(=N)N)NC(=O)[C@H](CCCNC(=N)N)NC(=O)[C@H](CCCCN)NC(=O)[C@H](CCCCN)NC(=O)[C@H](CCCNC(=N)N)NC(=O)CNC(=O)[C@@H](N)Cc1ccc(O)cc1)C(=O)N[C@H](C(=O)N[C@H](C(=O)N[C@@H](C)C(=O)O)[C@@H](C)O)C(C)C  protein interaction (ClpP and alpha-synuclein ΔN (human); inhibitor, co-immunoprecipitation; HEK293T cells): inhibited
CC(=O)NC(Cc1ccc(O)cc1)C(=O)NC(CO)C(O)c1ccc([N+](=O)[O-])cc1 (centres unmarked)  Kd (Escherichia coli 70S ribosome; binding, fluorescence polarization; with: BODIPY-erythromycin 4 nM): 140 ± 50 µM
Transferrin  apparent oxytocin concentration (anti-oxytocin rabbit polyclonal IgG; cross-reactivity, oxytocin EIA, Enzo; 3 µg/mL): 10.7 ± 7.9 pg/mL
CC(=O)OCC[N+](C)(C)C  EC50 (nicotinic acetylcholine receptor, mouse; [3H]GABA release, agonist; superior colliculus synaptosomes; high-sensitivity component): 0.48 ± 0.33 µM
CC(=O)N1CCCC1C(=O)NC(CO)C(O)c1ccc([N+](=O)[O-])cc1 (centres unmarked)  Kd (Escherichia coli 70S ribosome; binding, fluorescence polarization; with: BODIPY-erythromycin 4 nM): 10 ± 1.5 µM
COC(CN1CCn2cc(C(=O)NCc3ccc(F)cc3F)c(=O)c(O)c2C1=O)OC  EC50 (HIV-1 integrase wild type; viral replication; HOS, HIV-1; single-round vector): 0.0065 ± 0.0009 µM
CC(=O)Oc1ccccc1C(=O)O  PGE2 production (COX-2; A549 IL-1β activated; concentration not given, with: supernatant of platelets from treated blood): 3.3 ± 0.3 ng/mL
α1-antitrypsin  apparent oxytocin concentration (anti-oxytocin rabbit polyclonal IgG; cross-reactivity, oxytocin EIA, Enzo; 3 µg/mL): 0.5 ± 0.4 pg/mL
NC(=O)[C@@H]1CC[C@@H]2CN1C(=O)N2OS(=O)(=O)O  apparent IC50 (PBP5/6 Escherichia coli; Bocillin-FL binding, inhibitor; Escherichia coli, MG1655; 30 min, Tris-EDTA permeabilised, with: Bocillin-FL 25 µM): 480 ± 430 µM
CNSRQTDREDELI  inhibition (peptide, human polyclonal IgM RF STR; concentration not given, 5 µg/mL mAb II-481 coated, with: RF at 50% max binding concentration): 0%
O=S(=O)(CC1CS1)c1ccc(Oc2ccccc2)cc1 (centres unmarked)  soluble LRP1 level (LDLR; ELISA; apoE4-TR mice, soluble brain fraction; intraperitoneal, 25 mg/kg, 45 min before intracranial Aβ, brains collected 10 min later, with: intracranial Aβ(1-42); reference: vehicle, higher = stronger reduction): > 2 fold
CC[C@@]1(O)C[C@H](O[C@H]2C[C@H](N(C)C)[C@H](O)[C@H](C)O2)c2c(cc3c(c2O)C(=O)c2c(O)cccc2C3=O)[C@H]1C(=O)OC  maximal ΔTm (pre-miR-21 RNA; differential scanning fluorimetry; reference: untreated, positive = stabilisation): -17.1 °C
CC(=O)C[C@@H](c1ccccc1)c1c(O)c2ccc(O)cc2oc1=O  Vmax1 (UGT; refers to: 4-glucuronide; human liver microsomes): 19.7 nmol/min/mg protein
AR[pT]KQTARKSTG (H3C1 1-12; pT3; pT = C[C@@H](OP(=O)(O)O)[C@H](N)C(=O)O)  Kd (BIRC5 1-142 (Homo sapiens, UniProt O15392); ITC; peptide; pH 8.2, 25 °C): 46.4 ± 5.2 µM
NC(CO)C(=O)NC(CO)C(O)c1ccc([N+](=O)[O-])cc1 (centres unmarked)  Kd (Escherichia coli 70S ribosome; binding, fluorescence polarization; with: BODIPY-erythromycin 4 nM): 8.4 ± 2.4 µM
C/C1=C/C[C@@H](/C(C)=C/c2csc(C)n2)OC(=O)C[C@H](O)C(C)(C)C(=O)[C@H](C)[C@@H](O)[C@@H](C)CCC1  EC50 (tubulin; tubulin assembly, promoter): 0.44 ± 0.02 µM
Fibrinogen  apparent oxytocin concentration (anti-oxytocin rabbit polyclonal IgG; cross-reactivity, oxytocin EIA, Enzo; 3 µg/mL): 5.5 ± 4.5 pg/mL
CN(C)CCCn1cc(C2=C(c3c[nH]c4ccccc34)C(=O)NC2=O)c2ccccc21  phosphorylation level (Yes kinase, rat; CCK-stimulated phosphorylation, PKC inhibitor, refers to: Yes pY416; 5 µM, 1 min, pretreatment, with: CCK 100 nM; reference: CCK alone): 139 ± 21%

Excerpt of the above:
CN(C)CCCn1cc(C2=C(c3c[nH]c4ccccc34)C(=O)NC2=O)c2ccccc21  phosphorylation level (Yes kinase, rat; CCK-stimulated phosphorylation, PKC inhibitor, refers to: Yes pY416; 5 µM, 1 min, pretreatment, with: CCK 100 nM; reference: CCK alone): 139 ± 21%
CC(=O)NC(Cc1ccc(O)cc1)C(=O)NC(CO)C(O)c1ccc([N+](=O)[O-])cc1 (centres unmarked)  Kd (Escherichia coli 70S ribosome; binding, fluorescence polarization; with: BODIPY-erythromycin 4 nM): 140 ± 50 µM
melittin  partitioning enthalpy (isothermal titration calorimetry; POPC/POPG LUVs 50:50%; 100 µM, pH 7.0, 40 °C): -10.9 kcal/mol
Fibrinogen  apparent oxytocin concentration (anti-oxytocin rabbit polyclonal IgG; cross-reactivity, oxytocin EIA, Enzo; 3 µg/mL): 5.5 ± 4.5 pg/mL
NC(=O)CC(N)C(=O)NC(CO)C(O)c1ccc([N+](=O)[O-])cc1 (centres unmarked)  Kd (Escherichia coli 70S ribosome; binding, fluorescence polarization; with: BODIPY-erythromycin 4 nM): 40 ± 26 µM
O=C(O)c1ccc(O)c(O)c1  CD value (NAD(P)H quinone oxidoreductase, mouse; enzyme induction, inducer; Hepa-1c1c7; concentration doubling activity): 4.1 µM
